Published values of several laboratories.
Values joined by “and” are separate records of one study, mostly repeats; a detail may differ. ± marks the error that the study gave.
B1: IκBα YD/SS; sequence looked up; chain MFQAAERPQEWAMEGPRDGLKKERLLDDRHDSGLDSMKDEEYEQMVKELQEIRLEPQEVPRGSEPWKQQLTEDGDSFLHLAIIHEEKALTMEVIRQVKGDLAFLNFQNNLQQTPLHLAVITNQPEIAEALLGAGCDPELRDFRGNTPLHLACEQGCLASVGVLTQSCTTPHLHSILKATNYNGHTCLHLASIHGYLGIVELLVSLGADVNAQEPCNGRTALHLAVDLQNPDLVSLLLKCGADVNRVTYQGYSPYQLTWGRPSTRIQQQLGQLTLENLQMLPESEDEESYDTESEFTEFTEDELPSSDCVFGGQRLTL
B2: FABP4; sequence looked up; chain CDAFVGTWKLVSSENFDDYMKEVGVGFATRKVAGMAKPNMIISVNGDLVTIRSESTFKNTEISFKLGVEFDEITADDRKVKSIITLDGGALVQVQKWDGKSTTIKRKRDGDKLVVECVMKGVTSTRVYERA

`B1 (IκBα YD/SS)` — result for “IκBα protein level”: 100% (IκBα/IκBβ/IκBε knockout MEF, retro-transduced IκBα; Western blot; concentration not given, 0 (unit not given), added: TNFα 20 ng/mL; relative to: time zero).
The reporter activation of `SLLQWTTQV` is reported as 26.9% (Jurkat T cells expressing 1G4 TCR; NFAT-eGFP reporter, fluorescence microscopy; peptide; concentration not given, HLA-A*02:01 NY-ESO system).
For `bovine insulin`, the differentiated chondrocytes was 85% (ATDC5; 10 µg/mL, end of nodule growth; relative to: total cells).
`GLP-1(7-37)` gave an EC50 of 100 µM (INS-1; RT-qPCR, item: Fos mRNA; 1 h).
For `lawsone`, the selectivity index was 1.63 (A549; MTT; relative to: MRC5 IC50 over A549 IC50).
For `ALLEWVTEV`, the reporter activation was 0.00554% (Jurkat T cells expressing 1G4 TCR; NFAT-eGFP reporter, fluorescence microscopy; peptide; concentration not given, HLA-A*02:01 NY-ESO system).
The inhibition of `verteporfin` is reported as 88.9% (BT-16; cell viability, MTT; 10 µM, 72 h).
`epoetin alfa` has a mRNA level of 7.8 fold (UT7/EPO; RT-qPCR, item: EGR4; concentration not given, 90 min, normalized to HPRT1; relative to: vehicle).
`KPGKGSETVV` gave a binding intensity of 0.245 (human SCRIB PDZ3-4 tandem (MBP fusion); automated holdup; peptide, crude extract; concentration not given, corrected by standard peak, unit not given; relative to: biotin control resin, higher = stronger binding).
The reporter activation of `SLLMWITQC` is reported as 15.2% (Jurkat T cells expressing 1G4 TCR; NFAT-eGFP reporter, fluorescence microscopy; peptide; concentration not given, HLA-A*02:01 NY-ESO system).
`GSGAGPETLV` gave a binding intensity of 0.595 (human MAGI1-3/6 PDZ construct (MBP fusion); automated holdup; peptide, crude extract; concentration not given, corrected by standard peak, unit not given; relative to: biotin control resin, higher = stronger binding).
For `YLFEWVPRL`, the reporter activation was 0.0182% (Jurkat T cells expressing 1G4 TCR; NFAT-eGFP reporter, fluorescence microscopy; peptide; concentration not given, HLA-A*02:01 NY-ESO system).
`bis(2,4-dimethylpyridine)dichloroplatinum(II)` gave an IC50 of 10.5 µM (A549; cell viability, MTT; 48 h).
For `Peginesatide`, “mRNA fold induction” read 9.4 fold (UT7/EPO; RT-qPCR, item: CD69; concentration not given, 90 min; relative to: vehicle).
`MTVCNASQRQAHAQATAVSL` gave a selectivity ratio of 3.8 ± 1.1 (MDA-MB-468; phage binding; peptide; relative to: targeting over control phage).
`indirubin-3′-monoxime` has an inhibition of 2% (HeLa expressing Ub(G76V)-GFP; Ub(G76V)-GFP degradation, inhibitor, cycloheximide chase; 12 µM).
`WKGWSYLWTQQA` — result for fluorescence signal: “decreased” (CCA-156; multimer binding; peptide; 150 µM, 30 min, 4 °C, unlabelled competitor, added: 5 µM Cy5.5-labelled multimer).
`monensin sodium` gave a viability of 93.8% (MCF-10A; CellTiter-Glo; concentration not given, mean of two replicates; relative to: normalised luminescence).
With `evodiamine` the IC50 was 1.3 ± 0.05 µM (HL-60; cell proliferation).
For `MAAAAAAAAAAAAAAA`, “protein level fold change” read 1 (HS-SY-II; degrader, immunoblot, item: SS18-SSX1; peptide; concentration not given; relative to: control).
`ALLCWVTQV` has a reporter activation of 0.0251% (Jurkat T cells expressing 1G4 TCR; NFAT-eGFP reporter, fluorescence microscopy; peptide; concentration not given, HLA-A*02:01 NY-ESO system).
`maraviroc` has a mRNA level of 8.9 fold (HBMEC; gene expression, qPCR; concentration not given, 24 h, added: HIV infection plus Aβ42; relative to: HIV plus Aβ42-treated cells, increase).
With `Ixazomib citrate` the EC50 was 0.395 µM (HEK-293T ATF4-FLuc reporter; reporter gene, activator, qHTS).
The reporter activation of `GLAQWISHV` is reported as 0.19% (Jurkat T cells expressing 1G4 TCR; NFAT-eGFP reporter, flow cytometry; peptide; concentration not given, HLA-A*02:01 NY-ESO system).
`colistin` gave an MIC of 8 µg/mL (Escherichia coli; broth microdilution; clinical isolate RKI-No 6 A-6).
`RLYQWIPQV` has a reporter activation of 2.82% (Jurkat T cells expressing 1G4 TCR; NFAT-eGFP reporter, flow cytometry; peptide; concentration not given, HLA-A*02:01 NY-ESO system).
`Ac-LRKLRKRLLRDWLKAFYDKVAEKLKEAF-NH2 (N-acetyl, C-amide)`: “apoA-I in preβ-HDL region” 99% (HepG2; peptide, medium; 20 µg/mL, 3 h).
For `GLAQWIAGA`, the reporter activation was 0.01% (Jurkat T cells expressing 1G4 TCR; NFAT-eGFP reporter, fluorescence microscopy; peptide; concentration not given, HLA-A*02:01 NY-ESO system).
With `B2 (FABP4)` the osteoclast number was 230 and 257 and 221 and 209 (mouse bone marrow macrophages; TRAP staining; 50 ng/mL, 4 days, added: M-CSF and RANKL).

Some of these lines once more:
For `MAAAAAAAAAAAAAAA`, “protein level fold change” read 1 (HS-SY-II; degrader, immunoblot, item: SS18-SSX1; peptide; concentration not given; relative to: control).
The reporter activation of `SLLQWTTQV` is reported as 26.9% (Jurkat T cells expressing 1G4 TCR; NFAT-eGFP reporter, fluorescence microscopy; peptide; concentration not given, HLA-A*02:01 NY-ESO system).
